Experimental data collected from several papers.
Compare with care: the assays were run in different laboratories. Numbers after ± are the reported error.

Compound | assay | test system | setting | tissue uptake [%ID/g]
O=C([O-])CN1CCN(CC(=O)[O-])CCN(CC(=O)NCCc2ccc3c(c2)C2C=CCC2C(c2cc4c(cc2Br)OCO4)N3)CCN(CC(=O)[O-])CC1.[111In+3] (stereo not drawn) |  | mice with Hec50 tumour xenograft, stomach | 2 h, together with: G-1 5 µg blocking | 0.61 ± 0.35
CN1C(=O)[C@@H](Cc2ccc(O)c(I)c2)NC(=O)CNC(=O)[C@H](Cc2ccc3ccccc3c2)NC(=O)[C@H](CCCNC(=N)N)NC(=O)[C@H]1CCCNC(=O)c1ccc(CNC(=O)CN2CCN(CC(=O)O)CCN(CC(=O)O)CCN(CC(=O)O)CC2)cc1 [lutetium-177 labelled] | measured: 177Lu radioactivity | female CB-17 SCID mice, Daudi xenograft, skin | intravenous, 0.16 nmol per mouse, 6 h | 0.19 ± 0.02
CCCC[C@H](NC(=O)CN1CCC(NC(=O)CN2CCN(CC(=O)O)CCN(CC(=O)O)CCN(CC(=O)O)CC2)CC1)C(=O)N[C@H]1CC(=O)NCCCC[C@@H](C(N)=O)NC(=O)[C@H](Cc2c[nH]c3ccccc23)NC(=O)[C@H](CCCNC(=N)N)NC(=O)[C@@H](Cc2ccccc2)NC(=O)[C@H](Cc2c[nH]cn2)NC1=O [gallium-68 labelled] |  | C57BL/6J mice male B16-F10 tumour, stomach | 1 h post injection, unblocked | 0.5 ± 0.2
CCCC[C@@H]1NC(=O)[C@@H](NC(=O)[C@H](CCC(=O)O)NC(=O)CNC(=O)CN2CCN(CC(=O)O)CCN(CC(=O)O)CCN(CC(=O)O)CC2)CCCCNC(=O)C[C@@H](C(N)=O)NC(=O)[C@H](C(C)C)NC(=O)[C@@H]2CCCN2C(=O)[C@H](CCCNC(=N)N)NC(=O)CNC(=O)[C@H](Cc2c[nH]c3ccccc23)NC(=O)[C@H](CCCNC(=N)N)NC(=O)[C@@H](Cc2ccccc2)NC(=O)[C@H](Cc2c[nH]cn2)NC(=O)[C@H](CCC(=O)O)NC1=O [gallium-67 labelled] |  | C57 mice with B16/F1 melanoma, bone | intravenous, 0.037 MBq, 0.5 h | 0.61 ± 0.29
CCCC[C@H](NC(=O)CNC(=O)CNC(=O)CN1CCN(CC(=O)O)CCN(CC(=O)O)CC1)C(=O)N[C@H]1CC(=O)NCCCC[C@@H](C(N)=O)NC(=O)[C@H](Cc2c[nH]c3ccccc23)NC(=O)[C@H](CCCNC(=N)N)NC(=O)[C@@H](Cc2ccccc2)NC(=O)[C@H](Cc2c[nH]cn2)NC1=O [gallium-67 labelled] |  | female C57 mice, B16/F1 melanoma, lung | intravenous, 0.037 MBq, 0.5 h | 3.71 ± 0.25
NC12CNCCNCC(NCc3ccc(CNC(=O)CCCC(=O)NCc4ccc(-c5nncnn5)cc4)cc3)(CNCCNC1)CNCCNC2.[64Cu+2] |  | athymic nude mice, SW1222 xenograft, stomach with contents | 12 h, pretargeting with huA33-TCO, 24 h interval | 0.21 ± 0.1
O=C(NCC1OC2CCC=CCCC2O1)c1ccc(COCCOCCOCC[18F])cc1 (stereo not drawn) |  | female BALB/c nude mice, bone | intravenous, 60 min | 2.05 ± 0.12
O=C([O-])CN1CCN(CC(=O)[O-])CCN(CC(=O)[O-])CCN(CC(=O)[O-])CC1.[64Cu+2] |  | healthy athymic nude mice, small intestine | intravenous, 15 min | 1.53
N=C(N)NCCC[C@@H]1NC(=O)[C@H](CCCCNC(=O)CON=C[C@H](F)[C@@H](O)[C@H](O)[C@H](O)CO)NC(=O)[C@@H](Cc2ccc(O)cc2)NC(=O)[C@H](CC(=O)O)NC(=O)CNC1=O [fluorine-18 labelled] |  | nude mice U-87 MG tumour, kidney | intravenous, 0.5 h | 4.75 ± 5.6
O=C([O-])c1cccc(CN(CCN(Cc2cn(Cc3ccccc3)nn2)Cc2cccc(C(=O)[O-])n2)Cc2cn(Cc3ccccc3)nn2)n1.[64Cu+2] |  | healthy athymic nude mice, skin | intravenous, 15 min | 2.52
CCCC[C@H](NC(=O)CNC(=O)CNC(=O)CN1CCN(CC(=O)O)CCN(CC(=O)O)CCN(CC(=O)O)CC1)C(=O)N[C@H]1CC(=O)NCCCC[C@@H](C(N)=O)NC(=O)[C@H](Cc2c[nH]c3ccccc23)NC(=O)[C@H](CCCNC(=N)N)NC(=O)[C@@H](Cc2ccccc2)NC(=O)[C@H](Cc2c[nH]cn2)NC1=O [gallium-67 labelled] |  | female C57 mice, B16/F1 melanoma, liver | intravenous, 0.037 MBq, 24 h | 0.54 ± 0.14
CC(C)[C@H](NC(=O)[C@@H]1CCCN1C(=O)[C@H](CCCNC(=N)N)NC(=O)[C@H](CS)NC(=O)[C@H](Cc1c[nH]c2ccccc12)NC(=O)[C@H](CCCNC(=N)N)NC(=O)[C@@H](Cc1ccccc1)NC(=O)[C@H](Cc1c[nH]cn1)NC(=O)[C@H](CCC(=O)O)NC(=O)[C@H](CS)NC(=O)[C@H](CS)NC(=O)CNC(=O)[C@@H]1CC(=O)N[C@@H](CCCNC(=N)N)C(=O)NCC(=O)N[C@@H](CC(=O)O)C(=O)N[C@H](Cc2ccc(O)cc2)C(=O)N1)C(N)=O [technetium-99m labelled] |  | C57 mice B16/F1 melanoma female, skin | iv, 2 h, together with: NDP-MSH 10 µg co-injected | 1.11 ± 0.54

Some of these lines once more:
Compound | assay | test system | setting | tissue uptake [%ID/g]
O=C([O-])CN1CCN(CC(=O)[O-])CCN(CC(=O)NCCc2ccc3c(c2)C2C=CCC2C(c2cc4c(cc2Br)OCO4)N3)CCN(CC(=O)[O-])CC1.[111In+3] (stereo not drawn) |  | mice with Hec50 tumour xenograft, stomach | 2 h, together with: G-1 5 µg blocking | 0.61 ± 0.35
